Experimental data of several laboratories.

Cc1cccc(C)c1OCC(=O)N[C@@H](Cc1ccccc1)[C@@H](O)C[C@H](Cc1ccccc1)NC(=O)[C@H](C(C)C)N1CCCNC1=O — CL/F (human, HIV+/HCV−, plasma; total drug, steady state, median, added: lopinavir/ritonavir twice daily): 0.917 mL/min/kg
CCOc1cc([C@@H](CS(C)(=O)=O)N2C(=O)c3cccc(NC(C)=O)c3C2=O)ccc1OC — CL/F (healthy human; oral, 30 mg single dose, added: rifampicin 600 mg i.v. infusion over 30 min): 10.5 L/h
CCCC[C@H](NC(C)=O)C(=O)N[C@H]1CCC(=O)NC[C@@H](C(=O)N[C@@H](Cc2c[nH]c3ccccc23)C(N)=O)NC(=O)[C@H](CCCNC(=N)N)NC(=O)[C@@H](Cc2ccccc2)NC(=O)[C@H](Cc2c[nH]cn2)NC1=O — CL/F (healthy human, both sexes, plasma; subcutaneous, 3.0 mg once daily, day 1, geometric mean): 17.7 L/h
CC(C)NC[C@@H](C(=O)N1CCN(c2ncnc3c2[C@H](C)C[C@H]3O)CC1)c1ccc(Cl)cc1 — CL/F (human, hepatic impairment Severe (Child-Pugh), plasma; oral, 100 mg single, geometric mean): 109 L/h
Cc1nc2cccc(N)c2c(=O)n1C1CCC(=O)NC1=O (stereo not drawn) — CL/F (healthy adult human; oral, 3 mg, geometric mean, added: itraconazole 200 mg once daily): 4.24 L/h
O[C@H](C[C@H]1c2c(F)cccc2-c2cncn21)[C@H]1CC[C@H](O)CC1 — CL/F (human; oral, 200 mg [14C]): 124 L/h
Nc1cccc2c1C(=O)N(C1CCC(=O)NC1=O)C2=O (stereo not drawn) — CL/F (healthy humans, plasma; 4 mg, geometric mean, added: fluvoxamine): 3.4 L/h
CCc1cc(/C(C)=N/OCc2ccc(C3CCCCC3)c(C(F)(F)F)c2)ccc1CN1CC(C(=O)O)C1 — CL/F (healthy human CYP2C9*3/*3; 0.25 mg single dose, geometric mean): 0.9 L/h
CC[C@H](C)[C@H](NC(=O)[C@H](CC(C)C)NC(=O)[C@H](Cc1c[nH]c2ccccc12)NC(=O)[C@H](C)NC(=O)[C@@H](NC(=O)[C@H](Cc1ccccc1)NC(=O)[C@H](CC(=O)O)NC(=O)[C@H](CCCNC(=N)N)NC(=O)[C@H](C)NC(=O)[C@H](C)NC(=O)[C@H](CC(C)C)NC(=O)[C@H](C)NC(=O)[C@H](CC(=O)O)NC(=O)[C@H](CC(C)C)NC(=O)[C@@H](NC(=O)[C@@H](NC(=O)[C@H](C)NC(=O)[C@H](CC(C)C)NC(=O)[C@H](CCC(=O)O)NC(=O)[C@H](CO)NC(=O)[C@H](CO)NC(=O)[C@H](Cc1ccccc1)NC(=O)[C@@H](NC(=O)CNC(=O)[C@H](CCC(=O)O)NC(=O)CNC(=O)[C@@H](N)Cc1cnc[nH]1)[C@@H](C)O)[C@@H](C)O)[C@@H](C)CC)[C@@H](C)CC)C(=O)N[C@@H](C)C(=O)N[C@H](C(=O)N[C@@H](CCCCN)C(=O)N[C@H](C(=O)N[C@H](C(=O)N[C@@H](CC(=O)O)C(=O)N[C@@H](CCCCN)C(=O)N[C@@H](CCCCN)C(=O)N[C@@H](CCCCN)C(=O)N[C@@H](CCCCN)C(=O)N[C@@H](CCCCN)C(=O)N[C@@H](CCCCN)C(N)=O)[C@@H](C)O)[C@@H](C)CC)[C@@H](C)O — CL/F (healthy humans, plasma; subcutaneous, 10 mg glepaglutide once weekly, 6 doses, day 36, geometric mean): 1600 L/h
C#C[C@]1(O)CC[C@H]2[C@@H]3CCc4cc(O)ccc4[C@H]3CC[C@@]21C — CL/F (human female, plasma; oral, 35 µg, day 1, added: norethindrone 1 mg): 35.5 L/h
COc1cc2ncnc(Nc3ccc(F)c(Cl)c3)c2cc1NC(=O)/C=C/CN1CCCCC1 — CL/F (human, severe hepatic impairment; oral, 30 mg single, geometric mean): 40.8 L/h
CNC(=O)c1ccc(-c2cnc3ncc(Cc4ccc5ncccc5c4)n3n2)cc1F — CL/F (healthy human subjects, plasma; oral, 200 mg, geometric mean, alone): 37.9 L/h
CC[C@H](C)[C@@H]1NC(=O)[C@H](CCCNC(=N)N)NC(=O)[C@H](CC(=O)O)NC(=O)[C@H](CC(C)C)NC(=O)[C@H](CCCCN)NC(=O)[C@H](CC(C)C)NC(=O)CNC(=O)[C@H](Cc2ccccc2)NC(=O)[C@@H](NC(=O)CNC(=O)[C@H](CCCCN)NC(=O)[C@H](CO)NC(=O)[C@H](CC(C)C)NC(=O)CNC(=O)[C@H](CCCCN)NC(=O)[C@H](CCCCN)NC(=O)[C@H](CC(N)=O)NC(=O)[C@H](C)NC(=O)CNC(=O)[C@H](CCCCN)NC(=O)[C@H](Cc2ccc(O)cc2)NC(=O)[C@H](CCCCN)NC(=O)[C@H](CCCNC(=N)N)NC(=O)[C@H](C)NC(=O)[C@H](CC(N)=O)NC(=O)[C@@H]2CCCN2C(=O)[C@H](Cc2c[nH]cn2)NC(=O)[C@H](CCC(=O)O)NC(=O)[C@H](CCC(N)=O)NC(=O)CNC(=O)[C@@H]2CCCN2)CSSC[C@@H](C(=O)O)NC(=O)CNC(=O)[C@H](CC(C)C)NC(=O)CNC(=O)[C@H](CO)NC(=O)[C@H](CCSC)NC(=O)[C@H](CO)NC(=O)CNC1=O — CL/F (human, plasma; subcutaneous, 15 µg/kg once daily, week 26): 85.2 mL/min/kg
C#C[C@]1(O)CC[C@H]2[C@@H]3CCC4=CC(=O)CC[C@@H]4[C@H]3CC[C@@]21C — CL/F (human female, plasma; oral, 1 mg, day 1, added: ethinyl estradiol 35 µg): 28.9 L/h
OC[C@H]1O[C@@H](c2ccc(Cl)c(Cc3ccc(O[C@H]4CCOC4)cc3)c2)[C@H](O)[C@@H](O)[C@@H]1O — CL/F (human reference patient; population PK typical value): 10.6 L/h

Some of these lines once more:
CCOc1cc([C@@H](CS(C)(=O)=O)N2C(=O)c3cccc(NC(C)=O)c3C2=O)ccc1OC — CL/F (healthy human; oral, 30 mg single dose, added: rifampicin 600 mg i.v. infusion over 30 min): 10.5 L/h
CCCC[C@H](NC(C)=O)C(=O)N[C@H]1CCC(=O)NC[C@@H](C(=O)N[C@@H](Cc2c[nH]c3ccccc23)C(N)=O)NC(=O)[C@H](CCCNC(=N)N)NC(=O)[C@@H](Cc2ccccc2)NC(=O)[C@H](Cc2c[nH]cn2)NC1=O — CL/F (healthy human, both sexes, plasma; subcutaneous, 3.0 mg once daily, day 1, geometric mean): 17.7 L/h
